Published values from different studies.
Protocols differ between the studies behind these lines. Several values in a cell are separate wells, animals, samples, runs or records. Numbers after ± are the reported error. Values after ≈ are worked out from the molar mass of the structure shown.

NC(=O)c1[nH]c2ccc(Cl)cc2c1S(=O)(=O)c1ccccc1
solubility (1% w/v cremophor in water; 120 h, ambient): 137 µg/mL (≈ 409 µM)

COc1cc2c(cc1OC)[C@@H]1Cc3ccc(OC)c(OC)c3CN1CC2
measured concentration (rat plasma QC sample; 3200 ng/mL nominal, 24 h, high QC level autosampler stability): 3172 ± 25.4 ng/mL

CN1CC[C@@H](NC(=O)Nc2ccc(C#N)cc2)C[C@@H]1c1nc2ccccc2[nH]1
AUC(0-t), unbound (normal hepatic function, plasma; oral, 100 mg single dose, fasted, geometric mean): 835 ng·h/mL

Cc1cc(Nc2cc3ncccc3c(N[C@@H]3C[C@H]4CC[C@@H](C3)N4CCC#N)n2)n[nH]1
Cmax (Sprague-Dawley rat, female, plasma; oral, 30 mg/kg/day, last day of 4 weeks): 4.82 ng/mL

Cc1cc(Nc2cc3ncccc3c(N[C@@H]3C[C@H]4CC[C@@H](C3)N4CCC#N)n2)n[nH]1
tissue/plasma ratio (Balb/c mouse, male, colon; oral, 10 mg/kg, AUC(0-24 h) based; relative to: colon over plasma): 3880

C[C@H](N)C(=O)N[C@H](Cc1c[nH]c2ccccc12)C(=O)N[C@@H](Cc1ccccc1)C(=O)N[C@H](Cc1ccc2ccccc2c1)C(=O)N1CCC(C(N)=O)CC1
HPLC retention (RP-HPLC Jupiter Proteo; acetonitrile/water TFA gradient): 53.3 %B

CNCc1ccc(-c2[nH]c3cc(F)cc4c3c2CCNC4=O)cc1
volume of distribution (human cancer patients, plasma; intravenous, 8 mg/m2, day 1, together with: temozolomide 100): 299 L

Oc1ccc(C(c2ccc(O)cc2)(C(F)(F)F)C(F)(F)F)cc1
beta half-life (female Hsd:Sprague Dawley rats, plasma; intravenous, 34 mg/kg, free compound): 5.15 h

CC(C)=CCC[C@](C)(O[C@@H]1O[C@H](CO)[C@@H](O)[C@H](O)[C@H]1O)[C@H]1CC[C@]2(C)[C@@H]1[C@H](O)C[C@@H]1[C@@]3(C)CC[C@H](O[C@@H]4O[C@H](CO)[C@@H](O)[C@H](O)[C@H]4O[C@@H]4O[C@H](CO)[C@@H](O)[C@H](O)[C@H]4O)C(C)(C)[C@@H]3CC[C@]12C
post-preparative stability accuracy (rat, extracted plasma QC samples; 0.1 µg/mL, 24 h, 15 °C, autosampler): 109 ± 7.8%

CC1=C2C[C@H]3[C@@H](CC[C@@H]4C[C@H](NS(C)(=O)=O)CC[C@@]43C)[C@@H]2CC[C@@]2(C1)O[C@@H]1C[C@H](C)CN[C@H]1[C@H]2C
Cmax (patients, plasma; oral, 180 mg single, day -7, cycle 1): 106 ng/mL

CC(C)C[C@@H]1NC(=O)CN(C)C(=O)[C@H](Cc2ccccc2)NCc2cc(c[nH]2)CNC1=O
Papp (PAMPA; 100 µM, 17 h, pH 6.4): 0.174 ×10⁻⁶ cm/s

Cc1ccc(NC(=O)c2ccc(CN3CCNCC3)cc2)cc1Nc1nccc(-c2cccnc2)n1
volume of distribution (human, plasma; oral, 400 mg imatinib first dose, day 1 of cycle 1, metabolite of imatinib alone, mean): 1360 L

C[C@H](N)C(=O)N[C@H](Cc1c[nH]c2ccccc12)C(=O)N[C@@H](Cc1ccccc1)C(=O)N[C@H](C(=O)N1CCC(C(N)=O)CC1)[C@@H](c1ccccc1)c1c[nH]c2ccccc12
HPLC retention (RP-HPLC Kinetex Biphenyl; acetonitrile/water TFA gradient): 43.5 %B

CC[C@H](C)[C@H](NC(=O)[C@H](CO)NC(=O)[C@H](Cc1ccc(O)cc1)NC(=O)[C@H](CC(=O)O)NC(=O)[C@H](CO)NC(=O)[C@@H](NC(=O)[C@H](Cc1ccccc1)NC(=O)[C@@H](NC(=O)CNC(=O)[C@H](CCC(=O)O)NC(=O)[C@H](C)NC(=O)[C@@H](N)Cc1ccc(O)cc1)[C@@H](C)O)[C@@H](C)CC)C(=O)N[C@@H](C)C(=O)N[C@@H](CCSC)C(=O)N[C@@H](CC(=O)O)C(=O)N[C@@H](CCCCN)C(=O)N[C@H](C(=O)N[C@@H](Cc1c[nH]cn1)C(=O)N[C@@H](CCC(N)=O)C(=O)N[C@@H](CCC(N)=O)C(=O)N[C@@H](CC(=O)O)C(=O)N[C@@H](Cc1ccccc1)C(=O)N[C@H](C(=O)N[C@@H](CC(N)=O)C(=O)N[C@@H](Cc1c[nH]c2ccccc12)C(=O)N[C@@H](CC(C)C)C(=O)N[C@@H](CC(C)C)C(=O)N[C@@H](C)C(=O)N[C@@H](CCC(N)=O)C(=O)N[C@@H](CCCCN)C(=O)NCC(=O)N[C@@H](CCCCN)C(=O)N[C@@H](CCCCN)C(=O)N[C@@H](CC(N)=O)C(=O)N[C@@H](CC(=O)O)C(=O)N[C@@H](Cc1c[nH]c2ccccc12)C(=O)N[C@@H](CCCCN)C(=O)N[C@@H](Cc1c[nH]cn1)C(=O)N[C@@H](CC(N)=O)C(=O)N[C@H](C(=O)N[C@H](C(=O)N[C@@H](CCC(N)=O)C(=O)O)[C@@H](C)O)[C@@H](C)CC)C(C)C)[C@@H](C)CC
metabolic clearance rate (human type 2 diabetes; intravenous infusion, 4 pmol/kg/min, 60 to 360 min): 8 ± 0.6 mL/min/kg

C[N+]1(CC(=O)OC2CCCCCCCCC2)CCCCC1.[I-]
half-life (metabolic stability; human, liver microsomes; 1 µM, pH 7.4): 7.7 min

COc1ccc2cc3[n+](cc2c1OC)CCc1cc2c(cc1-3)OCO2
measured concentration (rat plasma QC sample; 32 ng/mL nominal, 24 h, medium QC level autosampler stability): 30.7 ± 1.6 ng/mL

CCc1c(-c2ccccc2)c(-c2ccccc2)nn1-c1ccccc1-c1cccc(OCC(=O)O)c1
Tmax (rat, plasma; oral, 10 mg/kg): 2 h

CS(=O)(=O)Nc1ccc(C(=O)O[C@@H](Cc2c(Cl)c[n+]([O-])cc2Cl)c2ccc(OC(F)F)c(OCC3CC3)c2)cc1OCC1CC1
Cmax (human, plasma; inhaled, 2000 µg twice daily, day 1, multi-dose dry powder inhaler): 0.928 ng/mL

CC(C)=CCC[C@](C)(O[C@@H]1O[C@H](CO[C@@H]2O[C@H](CO)[C@@H](O)[C@H](O)[C@H]2O)[C@@H](O)[C@H](O)[C@H]1O)[C@H]1CC[C@]2(C)[C@@H]1[C@H](O)C[C@@H]1[C@@]3(C)CC[C@H](O[C@@H]4O[C@H](CO)[C@@H](O)[C@H](O)[C@H]4O[C@@H]4O[C@H](CO)[C@@H](O)[C@H](O)[C@H]4O)C(C)(C)[C@@H]3CC[C@]12C
post-preparative stability accuracy (rat, extracted tissue homogenate QC samples; 1.0 µg/mL, 24 h, 15 °C, autosampler): 95 ± 8.9%

COC(=O)N[C@H](C(=O)N[C@@H](Cc1ccccc1)[C@@H](O)CN(Cc1ccc(-c2ccccn2)cc1)NC(=O)[C@@H](NC(=O)OC)C(C)(C)C)C(C)(C)C
Vd/F (population PK model; pregnant women, third trimester; oral, median, together with: without tenofovir): 90 L

C[C@]12CC[C@@H]3c4ccc(O)cc4CC[C@H]3[C@@H]1C[C@@H](O)[C@@H]2O
mean serum concentration (GC-MS; breast cancer women on NSAI, serum; vaginal, 0.03 mg daily, 1 h, day 28): 0.00155 ng/mL

CCCSc1nc(N[C@@H]2C[C@H]2c2ccc(F)c(F)c2)c2nnn([C@@H]3C[C@H](OCCO)[C@@H](O)[C@H]3O)c2n1
AUC (male Wistar Han rats, plasma; oral, 60 mg/kg/day, week 26, carcinogenicity study): 98.8 µM·h

CC(C)[C@H](NC(=O)[C@@H]1CCCN1C(=O)[C@H](CCCNC(=N)N)NC(=O)[C@H](CS)NC(=O)[C@H](Cc1c[nH]c2ccccc12)NC(=O)[C@H](CCCNC(=N)N)NC(=O)[C@@H](Cc1ccccc1)NC(=O)[C@H](Cc1c[nH]cn1)NC(=O)[C@H](CCC(=O)O)NC(=O)[C@H](CS)NC(=O)[C@H](CS)NC(=O)[C@H](CCCCN)NC(=O)[C@@H]1CC(=O)N[C@@H](CCCNC(=N)N)C(=O)N[C@@H]([C@@H](C)O)C(=O)N[C@@H](CC(=O)O)C(=O)N[C@H](Cc2ccc(O)cc2)C(=O)N1)C(N)=O [technetium-99m labelled]
tissue uptake (female C57 mouse, B16/F1 melanoma, intestines; intravenous, dose not given, 2 h, together with: NDP-MSH 10 µg co-injected): 1.16 ± 0.61 %ID

O=C(CCCCCCC(=O)Nc1ccccc1)NO
AUC(0-7 h) (patients, serum; oral, 800 mg, cycle 1, together with: flavopiridol): 18 µM·h

COc1cc2c(cc1OC)CN(CCc1ccc(NC(=O)c3cccc4c(=O)c5cccc(OC)c5[nH]c34)cc1)CC2
solubility (Solutol microemulsion; 24 h, 37 °C): 840 ± 30 µg/mL (≈ 1490 µM)

Cc1cc(Nc2ncc(Cl)c(Nc3ccccc3S(=O)(=O)C(C)C)n2)c(OC(C)C)cc1C1CCNCC1
Tss,max total (human, plasma; oral, 450 mg/day with food, steady state after dose 9): 6 h and 7.9 h and 4.4 h and 8 h and 6.2 h and 4 h

CC[C@H](C)[C@@H]1NC(=O)[C@H](Cc2ccc(O)cc2)NC(=O)[C@@H](N)CSSC[C@@H](C(=O)N2CCC[C@H]2C(=O)N[C@@H](CC(C)C)C(=O)NCC(N)=O)NC(=O)[C@H](CC(N)=O)NC(=O)[C@H](CCC(N)=O)NC1=O
AUC above baseline (microdialysis, radioimmunoassay; C57BL/6J male mice, wild type, hippocampus extracellular fluid; intraperitoneal, 12 µg total, incremental area over baseline): 134 ± 84 pg·30 min/sample

CCCC[C@H](NC(C)=O)C(=O)N[C@H]1CCC(=O)NC[C@@H](C(=O)N[C@@H](Cc2c[nH]c3ccccc23)C(N)=O)NC(=O)[C@H](CCCNC(=N)N)NC(=O)[C@@H](Cc2ccccc2)NC(=O)[C@H](Cc2c[nH]cn2)NC1=O
AUC(0-last) (beagle dog, male, plasma; subcutaneous, 40.0 mg/kg daily, day 1): 2640 ng·h/mL

CCCC[C@@H]1NC(=O)[C@@H](NC(=O)[C@H](CCC(=O)O)NC(=O)CNC(=O)CN2CCN(CC(=O)O)CCN(CC(=O)O)CCN(CC(=O)O)CC2)CCCCNC(=O)C[C@@H](C(N)=O)NC(=O)[C@H](C(C)C)NC(=O)[C@@H]2CCCN2C(=O)[C@H](CCCNC(=N)N)NC(=O)CNC(=O)[C@H](Cc2c[nH]c3ccccc23)NC(=O)[C@H](CCCNC(=N)N)NC(=O)[C@@H](Cc2ccccc2)NC(=O)[C@H](Cc2c[nH]cn2)NC(=O)[C@H](CCC(=O)O)NC1=O [indium-111 labelled]
lung to tissue ratio (measured: kidney; C57 mice; intravenous, 0.037 MBq, 24 h): 0.002

Cc1nc2cccc(OCC(C)(C)C(=O)NC(C)C)c2c(N)c1C(=O)O
AUC(0-t) (female Sprague-Dawley rat, plasma; oral, 100 mg/kg, single dose): 341 ng·h/mL

O=C(O)c1ccccc1Nc1ccc(CCc2ccc(Cl)c(Cl)c2)cc1
solubility limit (extracellular recording solution; pH 7.6, from 20 mM DMSO stock): 30 µM (≈ 11.6 µg/mL)

COc1ccc(-c2cc(=O)c3c(OC)c(OC)c(OC)c(OC)c3o2)cc1
tissue to peel content ratio (C57BL/6 mouse, male, liver; oral, 1% w/w in diet, 6 weeks, orange peel extract diet; relative to: content in orange peel): 0.03%

FC(F)(F)c1cccc(Nc2ncnc3ccccc23)c1
logP (potentiometric titration; 1-octanol/water, 0.15 M KCl; ionic species, optimized protocol): 1.32

CN[C@H](CC(C)C)C(=O)N[C@H]1C(=O)N[C@@H](CC(N)=O)C(=O)N[C@H]2C(=O)N[C@H]3C(=O)N[C@H](C(=O)N[C@H](C(=O)O)c4cc(O)cc(O)c4-c4cc3ccc4O)[C@H](O)c3ccc(c(Cl)c3)Oc3cc2cc(c3O[C@@H]2O[C@H](CO)[C@@H](O)[C@H](O)[C@H]2O[C@H]2C[C@](C)(N)[C@H](O)[C@H](C)O2)Oc2ccc(cc2Cl)[C@H]1O
time above MIC (microdialysis; pig, Danish Landrace, cancellous bone; intravenous, 1000 mg over 100 min, 450 min dosing interval, together with: 2.0 µg/mL MIC; relative to: dosing interval): 84%

Cn1cnc2c(F)c(Nc3ccc(Br)cc3Cl)c(C(=O)NOCCO)cc21
subjects with related adverse events (human, hepatic impairment and healthy; oral, 50 mg): 6.3%

Some of these lines once more:
CC(C)[C@H](NC(=O)[C@@H]1CCCN1C(=O)[C@H](CCCNC(=N)N)NC(=O)[C@H](CS)NC(=O)[C@H](Cc1c[nH]c2ccccc12)NC(=O)[C@H](CCCNC(=N)N)NC(=O)[C@@H](Cc1ccccc1)NC(=O)[C@H](Cc1c[nH]cn1)NC(=O)[C@H](CCC(=O)O)NC(=O)[C@H](CS)NC(=O)[C@H](CS)NC(=O)[C@H](CCCCN)NC(=O)[C@@H]1CC(=O)N[C@@H](CCCNC(=N)N)C(=O)N[C@@H]([C@@H](C)O)C(=O)N[C@@H](CC(=O)O)C(=O)N[C@H](Cc2ccc(O)cc2)C(=O)N1)C(N)=O [technetium-99m labelled]
tissue uptake (female C57 mouse, B16/F1 melanoma, intestines; intravenous, dose not given, 2 h, together with: NDP-MSH 10 µg co-injected): 1.16 ± 0.61 %ID

CCCSc1nc(N[C@@H]2C[C@H]2c2ccc(F)c(F)c2)c2nnn([C@@H]3C[C@H](OCCO)[C@@H](O)[C@H]3O)c2n1
AUC (male Wistar Han rats, plasma; oral, 60 mg/kg/day, week 26, carcinogenicity study): 98.8 µM·h

C[N+]1(CC(=O)OC2CCCCCCCCC2)CCCCC1.[I-]
half-life (metabolic stability; human, liver microsomes; 1 µM, pH 7.4): 7.7 min
